# Measurements from different studies.
# Every numbered part comes from another study and shows a few of its results, in no order. “And” joins repeats or separate records; there may be more than shown.
# Sequence of UniProt Q13233 (whole entry, looked up): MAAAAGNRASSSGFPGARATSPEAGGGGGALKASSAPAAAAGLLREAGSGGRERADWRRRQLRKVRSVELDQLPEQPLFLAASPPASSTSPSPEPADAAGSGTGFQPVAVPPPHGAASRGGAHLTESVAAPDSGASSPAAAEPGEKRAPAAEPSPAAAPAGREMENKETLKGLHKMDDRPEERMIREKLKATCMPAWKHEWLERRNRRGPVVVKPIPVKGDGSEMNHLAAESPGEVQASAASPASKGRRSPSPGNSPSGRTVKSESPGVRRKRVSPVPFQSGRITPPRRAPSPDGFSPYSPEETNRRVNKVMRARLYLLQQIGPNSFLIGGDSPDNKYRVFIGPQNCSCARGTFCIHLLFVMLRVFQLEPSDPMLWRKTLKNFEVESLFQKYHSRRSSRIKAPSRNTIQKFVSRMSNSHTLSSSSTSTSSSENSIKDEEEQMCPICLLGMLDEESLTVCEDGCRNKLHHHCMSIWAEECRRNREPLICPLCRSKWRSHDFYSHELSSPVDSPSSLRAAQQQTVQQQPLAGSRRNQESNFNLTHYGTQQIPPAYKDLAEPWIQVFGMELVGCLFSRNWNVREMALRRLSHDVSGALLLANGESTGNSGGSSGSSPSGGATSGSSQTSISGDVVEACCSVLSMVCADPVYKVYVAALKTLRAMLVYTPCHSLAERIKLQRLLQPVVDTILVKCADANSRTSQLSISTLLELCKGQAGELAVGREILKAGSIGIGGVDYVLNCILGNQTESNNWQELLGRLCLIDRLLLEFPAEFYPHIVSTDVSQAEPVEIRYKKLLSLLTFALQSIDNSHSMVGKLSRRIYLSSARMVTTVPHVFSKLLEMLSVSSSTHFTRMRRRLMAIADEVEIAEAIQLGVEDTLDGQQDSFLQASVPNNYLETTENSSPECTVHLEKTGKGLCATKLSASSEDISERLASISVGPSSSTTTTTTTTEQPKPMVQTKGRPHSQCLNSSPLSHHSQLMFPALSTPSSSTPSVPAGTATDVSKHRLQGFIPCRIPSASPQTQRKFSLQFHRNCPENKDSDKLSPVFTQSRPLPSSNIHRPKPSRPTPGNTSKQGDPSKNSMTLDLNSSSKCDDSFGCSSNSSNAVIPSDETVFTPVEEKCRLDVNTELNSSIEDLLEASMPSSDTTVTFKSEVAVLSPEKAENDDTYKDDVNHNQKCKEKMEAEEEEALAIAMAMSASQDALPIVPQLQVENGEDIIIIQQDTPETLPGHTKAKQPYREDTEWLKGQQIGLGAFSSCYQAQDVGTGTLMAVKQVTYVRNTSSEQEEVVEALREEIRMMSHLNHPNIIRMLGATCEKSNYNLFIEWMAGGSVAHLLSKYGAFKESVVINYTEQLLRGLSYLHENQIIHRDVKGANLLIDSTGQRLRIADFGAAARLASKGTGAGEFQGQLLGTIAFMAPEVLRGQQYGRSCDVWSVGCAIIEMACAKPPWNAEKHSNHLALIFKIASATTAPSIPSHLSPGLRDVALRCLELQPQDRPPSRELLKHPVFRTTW
# Sequence of UniProt P00519 (whole entry, unmodified, looked up): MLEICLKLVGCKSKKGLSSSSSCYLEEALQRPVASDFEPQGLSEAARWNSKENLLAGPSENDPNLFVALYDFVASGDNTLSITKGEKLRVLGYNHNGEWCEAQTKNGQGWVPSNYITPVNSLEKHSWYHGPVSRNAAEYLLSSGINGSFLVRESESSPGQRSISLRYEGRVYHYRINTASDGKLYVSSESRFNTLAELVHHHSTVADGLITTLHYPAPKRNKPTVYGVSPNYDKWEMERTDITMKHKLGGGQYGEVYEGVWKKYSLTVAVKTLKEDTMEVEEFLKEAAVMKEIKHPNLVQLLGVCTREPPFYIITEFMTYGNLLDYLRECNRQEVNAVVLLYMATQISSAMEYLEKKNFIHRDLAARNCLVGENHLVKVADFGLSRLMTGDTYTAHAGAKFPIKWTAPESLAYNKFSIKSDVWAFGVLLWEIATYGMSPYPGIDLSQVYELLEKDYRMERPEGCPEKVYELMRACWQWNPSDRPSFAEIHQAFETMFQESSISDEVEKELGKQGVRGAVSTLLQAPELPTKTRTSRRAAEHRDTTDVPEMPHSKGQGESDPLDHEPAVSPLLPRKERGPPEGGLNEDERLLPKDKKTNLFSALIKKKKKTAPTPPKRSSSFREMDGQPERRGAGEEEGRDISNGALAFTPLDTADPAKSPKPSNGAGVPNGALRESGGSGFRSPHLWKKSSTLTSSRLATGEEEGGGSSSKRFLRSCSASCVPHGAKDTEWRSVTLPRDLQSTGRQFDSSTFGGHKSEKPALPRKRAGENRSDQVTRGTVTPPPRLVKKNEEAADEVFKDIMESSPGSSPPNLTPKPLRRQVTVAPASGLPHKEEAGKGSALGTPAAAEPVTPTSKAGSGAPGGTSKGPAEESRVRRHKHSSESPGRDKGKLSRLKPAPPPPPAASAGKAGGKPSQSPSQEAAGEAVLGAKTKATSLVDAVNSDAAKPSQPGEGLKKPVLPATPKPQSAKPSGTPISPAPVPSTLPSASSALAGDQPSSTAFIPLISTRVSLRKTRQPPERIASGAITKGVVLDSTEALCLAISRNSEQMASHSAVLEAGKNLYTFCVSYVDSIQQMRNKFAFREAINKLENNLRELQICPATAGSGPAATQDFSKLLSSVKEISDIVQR
# Sequence of UniProt P53350 (whole entry, looked up): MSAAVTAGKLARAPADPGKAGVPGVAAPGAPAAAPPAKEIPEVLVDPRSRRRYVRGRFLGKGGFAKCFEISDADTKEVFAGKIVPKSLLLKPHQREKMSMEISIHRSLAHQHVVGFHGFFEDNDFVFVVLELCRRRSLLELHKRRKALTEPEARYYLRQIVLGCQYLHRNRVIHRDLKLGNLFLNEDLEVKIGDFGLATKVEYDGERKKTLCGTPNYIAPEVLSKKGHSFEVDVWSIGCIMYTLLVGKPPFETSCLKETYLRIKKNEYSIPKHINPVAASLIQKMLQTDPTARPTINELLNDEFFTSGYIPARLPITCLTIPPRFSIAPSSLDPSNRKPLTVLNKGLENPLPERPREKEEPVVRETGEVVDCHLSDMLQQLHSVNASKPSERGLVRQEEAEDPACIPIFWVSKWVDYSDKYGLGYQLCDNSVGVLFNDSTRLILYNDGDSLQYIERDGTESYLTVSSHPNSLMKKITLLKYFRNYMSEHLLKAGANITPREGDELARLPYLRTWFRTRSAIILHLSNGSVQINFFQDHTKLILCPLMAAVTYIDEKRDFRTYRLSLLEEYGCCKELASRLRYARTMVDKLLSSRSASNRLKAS
# Sequence of UniProt P10721 (whole entry, unmodified, looked up): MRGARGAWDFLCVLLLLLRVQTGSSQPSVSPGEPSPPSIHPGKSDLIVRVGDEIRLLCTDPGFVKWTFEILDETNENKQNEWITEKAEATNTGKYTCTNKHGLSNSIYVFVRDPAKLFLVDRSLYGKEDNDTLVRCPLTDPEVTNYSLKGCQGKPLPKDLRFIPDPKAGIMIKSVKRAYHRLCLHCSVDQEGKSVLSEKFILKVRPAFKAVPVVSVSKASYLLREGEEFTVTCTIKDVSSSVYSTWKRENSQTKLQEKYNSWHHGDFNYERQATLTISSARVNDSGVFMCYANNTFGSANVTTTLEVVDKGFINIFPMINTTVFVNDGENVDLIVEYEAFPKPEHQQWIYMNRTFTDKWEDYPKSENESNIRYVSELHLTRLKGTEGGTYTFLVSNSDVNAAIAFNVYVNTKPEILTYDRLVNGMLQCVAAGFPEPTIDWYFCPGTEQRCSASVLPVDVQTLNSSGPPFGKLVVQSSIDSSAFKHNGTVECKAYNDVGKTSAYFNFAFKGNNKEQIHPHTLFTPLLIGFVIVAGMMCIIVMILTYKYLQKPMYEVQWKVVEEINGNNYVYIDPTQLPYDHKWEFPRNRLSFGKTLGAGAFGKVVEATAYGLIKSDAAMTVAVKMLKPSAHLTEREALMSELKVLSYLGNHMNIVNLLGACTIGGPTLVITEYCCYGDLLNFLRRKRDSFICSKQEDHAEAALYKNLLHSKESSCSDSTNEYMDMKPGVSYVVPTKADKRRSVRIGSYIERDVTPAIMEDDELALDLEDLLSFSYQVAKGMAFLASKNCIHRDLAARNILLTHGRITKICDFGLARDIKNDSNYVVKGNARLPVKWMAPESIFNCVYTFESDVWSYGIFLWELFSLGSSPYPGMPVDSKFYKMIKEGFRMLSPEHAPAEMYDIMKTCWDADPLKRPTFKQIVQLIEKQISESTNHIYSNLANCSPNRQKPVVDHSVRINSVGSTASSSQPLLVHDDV

# Sample 1
# Target: Myosin light chain kinase 2, skeletal/cardiac muscle (MYLK2, Homo sapiens, UniProt Q9H1R3)
# Sequence of UniProt Q9H1R3 (whole entry, looked up): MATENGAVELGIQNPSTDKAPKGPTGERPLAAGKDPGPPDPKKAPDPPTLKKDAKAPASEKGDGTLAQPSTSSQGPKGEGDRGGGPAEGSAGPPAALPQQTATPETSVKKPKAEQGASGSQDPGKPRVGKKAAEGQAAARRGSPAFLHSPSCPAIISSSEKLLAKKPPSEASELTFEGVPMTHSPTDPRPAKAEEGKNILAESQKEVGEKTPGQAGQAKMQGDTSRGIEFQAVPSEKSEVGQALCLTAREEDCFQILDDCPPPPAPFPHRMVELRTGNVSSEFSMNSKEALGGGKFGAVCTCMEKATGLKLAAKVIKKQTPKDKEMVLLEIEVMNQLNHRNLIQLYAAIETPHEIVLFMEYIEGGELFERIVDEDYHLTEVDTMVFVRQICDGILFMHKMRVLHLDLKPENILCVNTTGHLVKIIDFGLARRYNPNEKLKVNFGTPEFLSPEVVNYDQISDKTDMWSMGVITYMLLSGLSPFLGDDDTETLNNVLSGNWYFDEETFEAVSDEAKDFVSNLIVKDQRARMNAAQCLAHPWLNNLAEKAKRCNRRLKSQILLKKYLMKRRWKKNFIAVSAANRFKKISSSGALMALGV
# Read-out: enzyme activity
# Action: inhibitor
# Concentration: 0.5 µM
# Reference: control
Structure (SMILES),remaining activity
Cc1nc(-c2ccccc2)c(-c2ccncc2)o1,100%
O=C(Nc1cccc(Nc2cc(Nc3cccc(C(F)(F)F)c3)ncn2)c1)C1CC1,98.9%
Nc1ncnc2n[nH]c(Nc3ccc(F)cc3)c12,87.3%
O=C(CCCc1ccc(-c2ccccc2F)cc1)Nc1ccc(O)cc1,97.8%
Cc1cccc(-c2[nH]c(C(C)(C)C)nc2-c2ccc3c(c2)OCO3)n1,99.2%
COc1cc2nccc(Oc3ccc(NC(=S)NC(=O)c4ccccc4C)cc3)c2cc1OC,26.8%
CC(C)[C@H](CO)Nc1nc(Nc2cc(N)cc(Cl)c2)c2ncn(C(C)C)c2n1,99.5%
Cn1c2ccccc2c2c3c(c4c5ccccc5n(CCC#N)c4c21)CNC3=O,59.6%
COc1ccc(CNC(=O)Nc2ncc([N+](=O)[O-])s2)cc1,98.5%
CNC(=O)c1cc(Oc2ccc(NC(=O)Nc3ccc(Cl)c(C(F)(F)F)c3)cc2)ccn1,96.1%
COc1cc2ncnc(Nc3ccc(F)c(Cl)c3)c2cc1OCCCN1CCOCC1,99.2%
COc1ccc(OC)c2c(=S)c3ccccc3[nH]c12,95.7%
COc1ccc(C(=O)Nc2sc3c(c2C(N)=O)CCCC3)cc1OC,94.4%
Cn1sc(=O)n(Cc2ccccc2)c1=O,101%
Nc1[nH]nc2nc3ccccc3nc12,90.5%

# Sample 2
# Compound: CC(C)S(=O)(=O)c1ccc2nccc(Nc3ccc4sc(C5CCCC5)nc4c3)c2c1.Cl
# Concentration: 1 µM
target,assay,remaining activity
"Serine/threonine-protein kinase LATS1 (LATS1, Homo sapiens, UniProt O95835)","kinase activity, inhibitor",80%
"Casein kinase I isoform gamma-2 (CSNK1G2, Homo sapiens, UniProt P78368)","kinase activity, inhibitor",104%
"Tyrosine-protein kinase ABL1 (ABL1, Homo sapiens, UniProt P00519)","kinase activity, inhibitor",83%
"Serine/threonine-protein kinase/endoribonuclease IRE1 (ERN1, Homo sapiens, UniProt O75460)","kinase activity, inhibitor",100%
MAPK1(h) (human),,105% and 104%
"5'-AMP-activated protein kinase catalytic subunit alpha-2 (PRKAA2, Homo sapiens, UniProt P54646)","kinase activity, inhibitor",86%
"Tyrosine-protein kinase JAK1 (JAK1, Homo sapiens, UniProt P23458)","kinase activity, inhibitor",104%
"Serine/threonine-protein kinase ICK (CILK1, Homo sapiens, UniProt Q9UPZ9)","kinase activity, inhibitor",82%
"Serine/threonine-protein kinase SIK1 (SIK1, Homo sapiens, UniProt P57059)","kinase activity, inhibitor",99%

# Sample 3
# Structure (SMILES): C[C@H]1CC[C@H](n2c3cnccc3c3cnc(Nc4ccc5c(n4)CCN(C(=O)CO)C5)nc32)CC1
# Read-out: cell-free assay
# Concentration: 1 µM
target,remaining signal [%]
"Tyrosine-protein kinase Fes/Fps (FES, Homo sapiens, UniProt P07332)",100
"Serine/threonine-protein kinase PLK2 (PLK2, Homo sapiens, UniProt Q9NYY3)",100
"Proto-oncogene tyrosine-protein kinase receptor Ret (RET, Homo sapiens, UniProt P07949, V804L)",67
"SNF-related serine/threonine-protein kinase (SNRK, Homo sapiens, UniProt Q9NRH2)",100
"cGMP-dependent protein kinase 2 (PRKG2, Homo sapiens, UniProt Q13237)",100
"Inhibitor of nuclear factor kappa-B kinase subunit epsilon (IKBKE, Homo sapiens, UniProt Q14164)",99
"Mitogen-activated protein kinase kinase kinase 1 (MAP3K1, Homo sapiens, UniProt Q13233)",100
"Epidermal growth factor receptor (EGFR, Homo sapiens, UniProt P00533, L858R)",95
"Mast/stem cell growth factor receptor Kit (KIT, Homo sapiens, UniProt P10721, V559D)",6.3
"Calcium/calmodulin-dependent protein kinase type IV (CAMK4, Homo sapiens, UniProt Q16566)",100

# Sample 4
# Compound: FC(F)(F)c1ccc2c(c1)nc(-c1cccnc1)n2C1CC1
# Concentration: 1 µM
target,assay,remaining binding [%]
"Dual specificity tyrosine-phosphorylation-regulated kinase 1B (DYRK1B, Homo sapiens, UniProt Q9Y463)","cell-free assay, competition with immobilised ligand",53
"Cyclin-dependent kinase 17 (CDK17, Homo sapiens, UniProt Q00537)","cell-free assay, competition with immobilised ligand",100
"Cyclin-dependent kinase 13 (CDK13, Homo sapiens, UniProt Q14004)","cell-free assay, competition with immobilised ligand",100
"Casein kinase II subunit alpha' (CSNK2A2, Homo sapiens, UniProt P19784)","cell-free assay, competition with immobilised ligand",100
"Mitogen-activated protein kinase kinase kinase 6 (MAP3K6, Homo sapiens, UniProt O95382)","cell-free assay, competition with immobilised ligand",100
"Epidermal growth factor receptor (EGFR, Homo sapiens, UniProt P00533, del747-750/T751S)","cell-free assay, competition with immobilised ligand",100
"Myosin light chain kinase family member 4 (MYLK4, Homo sapiens, UniProt Q86YV6)","cell-free assay, competition with immobilised ligand",100
"Receptor-type tyrosine-protein kinase FLT3 (FLT3, Homo sapiens, UniProt P36888, D835V/ITD)","cell-free assay, competition with immobilised ligand",92
"Dual specificity mitogen-activated protein kinase kinase 1 (MAP2K1, Homo sapiens, UniProt Q02750)","cell-free assay, competition with immobilised ligand",94
"Serine/threonine-protein kinase Nek3 (NEK3, Homo sapiens, UniProt P51956)","cell-free assay, competition with immobilised ligand",88
"Serine/threonine-protein kinase SBK1 (SBK1, Homo sapiens, UniProt Q52WX2)","cell-free assay, competition with immobilised ligand",100
"Myosin light chain kinase 2, skeletal/cardiac muscle (MYLK2, Homo sapiens, UniProt Q9H1R3)","cell-free assay, competition with immobilised ligand",100
"Inhibitor of nuclear factor kappa-B kinase subunit alpha (CHUK, Homo sapiens, UniProt O15111)","cell-free assay, competition with immobilised ligand",100
"Proto-oncogene tyrosine-protein kinase Src (SRC, Homo sapiens, UniProt P12931)","cell-free assay, competition with immobilised ligand",100
"Myotonin-protein kinase (DMPK, Homo sapiens, UniProt Q09013)","cell-free assay, competition with immobilised ligand",92
"Mitogen-activated protein kinase kinase kinase kinase 2 (MAP4K2, Homo sapiens, UniProt Q12851)","cell-free assay, competition with immobilised ligand",73
"Tyrosine-protein kinase ABL1, non-phosphorylated (ABL1, Homo sapiens, UniProt P00519, F317L)","cell-free assay, competition with immobilised ligand",100
"Mitogen-activated protein kinase kinase kinase 1 (MAP3K1, Homo sapiens, UniProt Q13233)","cell-free assay, competition with immobilised ligand",100
"Serine/threonine-protein kinase PLK1 (PLK1, Homo sapiens, UniProt P53350)","cell-free assay, competition with immobilised ligand",96
"Serine/threonine-protein kinase 16 (STK16, Homo sapiens, UniProt O75716)","cell-free assay, competition with immobilised ligand",100
"RAC-beta serine/threonine-protein kinase (AKT2, Homo sapiens, UniProt P31751)","cell-free assay, competition with immobilised ligand",100
"Non-receptor tyrosine-protein kinase TYK2, JH1 (TYK2, Homo sapiens, UniProt P29597)","cell-free assay, competition with immobilised ligand",100
"Serine/threonine-protein kinase 32C (STK32C, Homo sapiens, UniProt Q86UX6)","cell-free assay, competition with immobilised ligand",100
"Aurora kinase C (AURKC, Homo sapiens, UniProt Q9UQB9)","cell-free assay, competition with immobilised ligand",100
"AP2-associated protein kinase 1 (AAK1, Homo sapiens, UniProt Q2M2I8)",binding,100
